Results collected from several papers.
± gives the spread as reported.

| SMILES | tested on | test | test system | setting | how to read | quantity | result |
| --- | --- | --- | --- | --- | --- | --- | --- |
| Cc1ccc(Oc2ccc(-c3ccn4c(CC5CC5)nnc4c3C(F)(F)F)cc2F)c(C)n1 |  |  | human liver microsomes | 5 µM, 15 min |  | compound metabolized | 31% |
| O=C(O)COc1ccc(Br)cc1/C=N/NC(=O)c1ccc(Cl)cc1 |  | Racine scale 0-5 | male mice, pilocarpine-induced seizures | oral, 20 mg/kg, 2 h after pilocarpine, unit not given, together with: pilocarpine 300 mg/kg i.p. | higher = more severe | seizure severity | 1.3 ± 0.48 |
| O=C(N[C@@H](CC1CCCCC1)C(=O)N[C@@H](C[C@@H]1CCNC1=O)C(O)S(=O)(=O)O)OCc1cccc(Cl)c1 (some centres unmarked) | CRFK | cell growth or viability |  | 36 h |  | CC50 | 138 µM |
| CC[C@H](C)[C@@H]1NC(=O)[C@H](C(C)C)NC(=O)[C@H](Cc2ccccc2)NC(=O)[C@H](Cc2ccccc2)NC(=O)[C@@H]2CCCN2C(=O)[C@@H]2CCCN2C(=O)[C@H]([C@@H](C)CC)NC(=O)[C@H](CC(C)C)NC(=O)[C@H](CCSC)NC1=O | MCF7 | LDH release |  | 200 µg/mL, 24 h |  | cytotoxicity | 19% |
| CCCCCC(=O)OCn1cc(F)c(=O)[nH]c1=O |  |  | Sprague-Dawley rat, rat intestinal homogenate | 80 µg/mL, 37 °C |  | half-life | < 4.98 min |
| COc1ccc(CNc2ccc(-c3ccn4c(CC5CC5)nnc4c3C(F)(F)F)cc2F)cn1 |  |  | male Sprague-Dawley rat, plasma | subcutaneous, 10 mg/kg, 4 h, single dose |  | concentration | 643 ng/mL |
| O=C(N[C@@H](CC1CCCCC1)C(=O)N[C@@H](C[C@@H]1CCNC1=O)C(O)S(=O)(=O)O)OCc1ccccc1 (some centres unmarked) | CRFK | cell growth or viability |  | 36 h |  | CC50 | > 150 µM |
| FC(F)(F)c1c(CN2CCC(c3ccccc3)CC2)ccn2c(CC3CC3)nnc12 |  |  | human liver microsomes | 5 µM, 15 min |  | compound metabolized | 11% |
| O=C[C@H](C[C@@H]1CCNC1=O)NC(=O)[C@H](CC1CCCCC1)NS(=O)(=O)c1ccc(Cl)cc1 | CRFK | cell growth or viability |  | 36 h |  | CC50 | > 150 µM |
| O=C(O)COc1ccc(Br)cc1C=NNC(=O)Cc1ccccc1 (mixture of isomers) |  | Racine scale 0-5 | male mice, pilocarpine-induced seizures | oral, 20 mg/kg, 1.5 h after pilocarpine, unit not given, together with: pilocarpine 300 mg/kg i.p. | higher = more severe | seizure severity | 1.6 ± 0.7 |
| CC[C@H](C)[C@@H]1NC(=O)[C@H](CC(C)C)NC(=O)[C@H](Cc2ccccc2)NC(=O)[C@H](Cc2ccccc2)NC(=O)[C@@H]2CCCN2C(=O)[C@@H]2CCCN2C(=O)[C@H](C(C)C)NC(=O)[C@H](CC(C)C)NC(=O)[C@H]([C@@H](C)CC)NC1=O | A-375 | LDH release |  | 500 µM, 48 h | reference: DMSO | cytotoxicity | 56% |

For quick reference, copied from above:
| SMILES | tested on | test | test system | setting | how to read | quantity | result |
| --- | --- | --- | --- | --- | --- | --- | --- |
| FC(F)(F)c1c(CN2CCC(c3ccccc3)CC2)ccn2c(CC3CC3)nnc12 |  |  | human liver microsomes | 5 µM, 15 min |  | compound metabolized | 11% |
